Experimental data pooled from the literature.
Every numbered part comes from another study and shows a few of its results, in no order. Changes are numbered by the printed parent chain.

Sample 1
Target: ATF1, bZIP domain (human)
Method: DHFR protein complementation
Matrix: yeast
Setting: single substitutions, most at no-binding floor
Relative to: wild-type JUN-FOS pair
Direction: higher = stronger binding
Starting sequence: JUN, bZIP domain (human); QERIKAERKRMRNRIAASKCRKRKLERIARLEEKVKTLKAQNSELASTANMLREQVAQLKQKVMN; partner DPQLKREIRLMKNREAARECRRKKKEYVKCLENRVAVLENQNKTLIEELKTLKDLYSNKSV
Change | binding fitness [natural log]
V35H | -1.5
A49V | -1.52
T37P | -1.56
I28G | -1.47
A40V | -1.47
S47V | -1.5
T37S | -1.51
L45Y | -1.49
E32V | -1.42
E32C | -1.45
E44N | -1.55
L52A | -1.55
L52S | -1.52
E32M | -1.55
Q55H | -1.52
T48H | -1.54
A46M | -1.28
K34L | -1.49
K36Q | -1.52

Sample 2
Target: Centromere-binding protein 1, full length, His-tagged (CBF1, Saccharomyces cerevisiae, UniProt P17106, residues 1-351)
Sequence of UniProt P17106 (whole entry, looked up): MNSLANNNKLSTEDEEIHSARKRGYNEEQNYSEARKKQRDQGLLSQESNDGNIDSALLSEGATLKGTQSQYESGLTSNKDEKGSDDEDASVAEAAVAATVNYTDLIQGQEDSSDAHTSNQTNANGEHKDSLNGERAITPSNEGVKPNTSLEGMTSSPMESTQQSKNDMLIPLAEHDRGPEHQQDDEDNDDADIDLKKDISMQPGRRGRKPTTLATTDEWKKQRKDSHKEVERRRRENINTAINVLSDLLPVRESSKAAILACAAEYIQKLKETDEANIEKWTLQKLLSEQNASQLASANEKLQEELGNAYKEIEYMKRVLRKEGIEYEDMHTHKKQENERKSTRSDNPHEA
Method: competition protein-binding microarray
Form: double-stranded DNA, one strand shown
Matrix: in vitro
Concentration: 2 µM
Setting: whole 60-bp probe, lowest competitor level
Together with: Pho4 competitor, 0.05 µM
Direction: higher = stronger binding
Shared flanks, not repeated: … GTCTTGATTCGCTTGACGCTGCTG
Strand | fluorescence intensity
TTGCCTTTTTCACTTCACGTGCTTTTGGTACATACT | 1440 a.u.
AAATTACTAAGTTGGCTCGTGGGTGACGCCGTATGA | 76.8 a.u.
CACTTCGGTTAGCATCACTTTTAACCAATCTCTTTC | 67.1 a.u.
TGAATAGCAGCATTCAATGTGACGAACAACCCGGAG | 58.5 a.u.
CGTCCTAGTGATTGTAACGTGGGTGCCATGAGGAAG | 109 a.u.
AATAAAACAAGGCGCCATGTGACAGTTTCCAAAAGG | 691 a.u.
ATATGCCAGGCAAATAACGTGTCGGTGATTGTGAAG | 138 a.u.
CTCTAATCCCACTACCACATGCCATACTCACCTTCA | 93.4 a.u.
CAGAACAGGTTTGTATTCGTGATGGTGTCCCTGAAG | 76.2 a.u.
CTTTCCCGATCTTGAAAAGTGGGTGTAGCACATTTG | 63.8 a.u.
ATCAAGGCTGTTCACCACGCATCTGTTCAAATCAAC | 78.6 a.u.
GGCAATTGCAAGCCCGTCGTGCTTTTGGGGTGATAT | 99.6 a.u.
CGTCCTAGCGATTGAGCGGTGGGTGCCATGAGGAAG | 77.4 a.u.
TTGTGGCAATCCGACCACGTCTTGTCTTCTTAACTT | 66.2 a.u.
GTAAGTGAGATAATCCACGTGCTTTAAAGAAGTTGT | 1650 a.u.
CATACCCAACCTTGTCACATCACTTAAGATATTTGT | 80.2 a.u.
GGAAACAGCTACCCCGGCGTGCCGAGTGGCTCTCTG | 46.1 a.u.
GAAAAATTAATCCGACATGTGGAATATTTCCTTCCG | 140 a.u.

Sample 3
Target: Histone acetyltransferase KAT6A, winged helix 2, GST fusion (KAT6A, Homo sapiens, UniProt Q92794, residues 85-181)
Method: protein binding microarray
Form: double-stranded DNA, one strand shown
Matrix: in vitro
Concentration: not given
Setting: 8-mer, flanks averaged, mean of 2 arrays, mostly near background
Relative to: not given
Direction: higher = stronger binding
Construct (chain): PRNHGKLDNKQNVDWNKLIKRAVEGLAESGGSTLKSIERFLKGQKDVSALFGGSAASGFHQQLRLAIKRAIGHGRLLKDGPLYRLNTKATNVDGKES
Strand | E-score
CGACCAAG | 0.102
CCGCGAAG | 0.138
TCGGACGA | 0.0734
CTGCTCGA | -0.078
CTTCCCAA | -0.0487
GAGCCTAC | -0.0327
AACTATAG | -0.0829
AACGTGCG | -0.0672
ATGACTAC | -0.331
CATATAGC | 0.0164
ACGATTAG | -0.0144
GGCTTTAC | -0.0887
AAAGACTC | -0.237
ATGGAGGA | -0.0141
AACCCCTG | -0.0161
CGAGCTAC | -0.081
AGAGAAAA | 0.132
ACAATCAT | -0.113
CCCAGCGA | 0.159
GTATCAAA | 0.0897
ACCCGTAC | -0.225
AAAGCACT | 0.0932
GGCAGTAC | 0.0364
TAGTTGGA | 0.0601
ATCCGTAC | 0.0281

Sample 4
Target: Interferon regulatory factor 3, full length, phosphomimetic (IRF3, Homo sapiens, UniProt Q14653, residues 1-427, S386D/S396D/S398D/S402D/T404D/S405D)
Sequence of UniProt Q14653 (whole entry, unmodified, looked up): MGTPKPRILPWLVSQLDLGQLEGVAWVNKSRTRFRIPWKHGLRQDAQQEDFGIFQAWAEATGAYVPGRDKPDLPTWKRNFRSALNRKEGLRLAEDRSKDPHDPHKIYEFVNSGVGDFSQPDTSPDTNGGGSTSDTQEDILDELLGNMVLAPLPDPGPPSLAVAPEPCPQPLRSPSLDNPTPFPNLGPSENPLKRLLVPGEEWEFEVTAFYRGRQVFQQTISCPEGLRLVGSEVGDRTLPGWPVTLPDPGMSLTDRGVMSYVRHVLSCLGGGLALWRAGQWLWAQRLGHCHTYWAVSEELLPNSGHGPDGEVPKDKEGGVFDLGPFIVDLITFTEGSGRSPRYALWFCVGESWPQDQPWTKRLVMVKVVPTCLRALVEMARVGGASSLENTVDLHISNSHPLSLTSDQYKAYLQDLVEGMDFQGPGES
Method: protein-binding microarray
Form: double-stranded DNA, one strand shown
Matrix: in vitro
Concentration: 2540 nM top
Setting: 60-bp whole probe
Together with: salmon DNA 0.4 mg/ml
Relative to: random background probes
Direction: higher = stronger binding
Shared flanks, not repeated: GCCTAGCAC … GTCTTGATTCGCTTGACGCTGCTG
Strand | fitted relative affinity [z-score]
TTAGGACTGGACACTGGGATAGTGCTA | -0.629
TCAGATCTGCCGTCCCACACTGTGCTA | 0.482
GACGGTATCGGTCTCGGAACGTGCTAG | 4.73
GACGATCTCAGTCTTGAGACGTGCTAG | 0.697
GACGGTTTCGACACAGGGGACGTGCTA | 2.95
ACTGATCACCGATTTCCTTCAGTGCTA | 0.816
TTAGGTTTCGGTTTCGGTTGGTGCTAG | 11.2
TTAGGTGTCGACACTGGGTTAGTGCTA | 0.491
TTAGAACTGGGTCTCGATTAGTGCTAG | -0.628
TTAGGACGGCTTCTCCTTTAGTGCTAG | -0.397
TCAGATTTTGTCCTCCCACTGTGCTAG | 0.258
GCACTTTTCCCCCTAGTTGTGTGCTAG | 2.14
GTTGTACTTTCTATCTCTGTGTGCTAG | 3.52
GAATGAATGGACATTTCTTCGTGCTAG | 0.671
GACGGTCTCCTTTTCCGGACGTGCTAG | 4.71
TCATTTTTCCGAGTGAGACTGTGCTAG | 1.92
GACGGTATCGCCTATCGGGACGTGCTA | 0.627
TCACCTCTACCTCCTGGGACTGTGCTA | 0.169

For quick reference, copied from above (sample 1):
Change | binding fitness [natural log]
T37P | -1.56
I28G | -1.47
A40V | -1.47
S47V | -1.5
T37S | -1.51
L45Y | -1.49
E32V | -1.42
E32C | -1.45
E44N | -1.55
L52A | -1.55
